Results of several laboratories.
Numbered parts are unrelated; each lists some results of a single study. “And” joins repeats or separate records; there may be more than shown.

Sample 1
Cell line: A-375
Tested at: 100 µM
Time: 18 h
The viability of `CCCCOc1ccc(C(=O)CCN2CCCCC2)cc1` is reported as 43.5%.
The viability of `C[C@]12CCC(=O)C=C1CC[C@@H]1[C@@H]2C(=O)C[C@@]2(C)[C@H]1CC[C@]2(O)C(=O)CO` is reported as 91.3%.
The viability of `CC(=O)N[C@@H](CS)C(=O)O` is reported as 89%.
For `CCCNC(C)C(=O)Nc1c(C)csc1C(=O)OC` (stereo not shown), the viability was 94.7%.
`Cc1cn([C@H]2C[C@H](N=[N+]=[N-])[C@@H](CO)O2)c(=O)[nH]c1=O` gave a viability of 109%.
`CC(C)(C)NCC(O)c1ccc(O)c(CO)c1` (stereo not shown) has a viability of 98.8%.
`N#C[C@@H]1CCCN1C(=O)CNC12CC3CC(CC(O)(C3)C1)C2` gave a viability of 94%.
The viability of `C=CCOC(Cn1ccnc1)c1ccc(Cl)cc1Cl` (stereo not shown) is reported as 96.8%.
`Cc1ncc(C[n+]2csc(CCO)c2C)c(N)n1` gave a viability of 91.5%.
`COC(c1ccccc1)(c1ccccc1)[C@H](Oc1nc(C)cc(C)n1)C(=O)O` gave a viability of 106%.
The viability of `COC(=O)C1=C(C)NC(C)=C(C(=O)OC(C)(C)CN(C)CCC(c2ccccc2)c2ccccc2)C1c1cccc([N+](=O)[O-])c1` (stereo not shown) is reported as 68.3%.
`O=C(O)c1ccccc1Nc1cccc(C(F)(F)F)c1` has a viability of 91.5%.
The viability of `C/C=C/c1ccc(OC)cc1` is reported as 79.9%.
With `N[C@@H]1CON=C1O` the viability was 110%.
For `CCc1cccc2c3c([nH]c12)C(CC)(CC(=O)O)OCC3` (stereo not shown), the viability was 91.2%.
For `N[C@@H](Cc1cc(I)c(Oc2cc(I)c(O)c(I)c2)c(I)c1)C(=O)O`, the viability was 75%.
`Cc1nc(C)c(C)nc1C` gave a viability of 107%.
With `CCCC1O[C@@H]2C[C@H]3[C@@H]4CCC5=CC(=O)C=C[C@]5(C)[C@H]4[C@@H](O)C[C@]3(C)[C@]2(C(=O)CO)O1` (stereo partly shown) the viability was 37.9%.
The viability of `CCCCCCCCCCCCCCCCCCCCCCO` is reported as 96.1%.

Sample 2
Cell line: normal organoid sample E
Method: CellTiter-Glo
Host: human
Sample: normal-adjacent epithelium
Tested at: 1 µM
Reference: DMSO
`C[C@H](c1cccc(C#N)c1)n1cc(Cl)cc(C(N)=O)c1=N` has a viability of 111% and 120%.
For `CO[C@H]1CC[C@H](CNc2ccc(S(=O)(=O)NC(=O)c3ccc(N4CCN(CC5=C(c6ccc(Cl)cc6)CC(C)(C)CC5)CC4)cc3Oc3cnc4[nH]ccc4c3)cc2[N+](=O)[O-])CC1`, the viability was 70.3% and 76.5%.
`Cc1nc(C2CCN(C(=O)c3ccc(OC(F)(F)F)cc3N)CC2)c2ncc(N3CCN(C)CC3)cc2n1` has a viability of 120% and 106%.
The viability of `CCC(=O)N[C@H]1CC[C@@H](C(=O)N(C)c2ccc(-c3nc4ccccc4o3)cc2)C1` is reported as 104% and 86.7%.
`Cn1cncc1[C@@](O)(COc1ccc(C#N)cc1-c1ccc(OC(F)(F)F)cc1)c1ccc(C#N)cc1` gave a viability of 72.6% and 100%.

Sample 3
Cell line: mouse MPNST tumor cells
Method: high-content immunofluorescence imaging
Item: nuclear SOX9
Tested at: 10 µM
Time: 12 h
Notes: mean of 2 replicates
Reference: DMSO control
Reading: higher = more nuclear SOX9
Under “nuclear SOX9 intensity”, `COc1ccc2cc(CCC(C)=O)ccc2c1` is recorded as 98.9 % of DMSO.
For `CC1(C)S[C@@H]2[C@H](NC(=O)[C@H](NC(=O)N3CCNC3=O)c3ccccc3)C(=O)N2[C@H]1C(=O)O`, “nuclear SOX9 intensity” read 93.4 % of DMSO.
`Clc1cccc(C(c2ccc3[nH]cnc3c2)n2ccnc2)c1` (stereo not shown): “nuclear SOX9 intensity” 82.8 % of DMSO.
For `c1ccc(N2CCN(CCCOc3ccc4c(c3)OCO4)CC2)cc1`, “nuclear SOX9 intensity” read 96.7 % of DMSO.
`CCOC(=O)C1=C(N)Oc2cc(O)ccc2C1c1cccnc1` (stereo not shown) — result for “nuclear SOX9 intensity”: 113 % of DMSO.
For `CCOC(=O)NNc1nncc2ccccc12`, “nuclear SOX9 intensity” read 91.4 % of DMSO.
Under “nuclear SOX9 intensity”, `N#CC(CCCN1CCN(/N=C/c2cccnc2)CC1)(c1ccccc1)c1ccccc1` is recorded as 98.4 % of DMSO.
`CC(C)Cc1sc(N)nc1-c1ccc(P(=O)(O)O)o1`: “nuclear SOX9 intensity” 100 % of DMSO.
For `O=C(NO)c1cccc(C(=O)NCCc2ccccc2)c1`, “nuclear SOX9 intensity” read 93.7 % of DMSO.
For `CCOc1cc(N)c(Cl)cc1C(=O)NCC1CN(Cc2ccc(F)cc2)CCO1` (stereo not shown), “nuclear SOX9 intensity” read 84.7 % of DMSO.
Under “nuclear SOX9 intensity”, `CCCCNc1ncc(C(=O)NCc2ccc(-n3ccnc3)cc2)c(NC2CCC(O)CC2)n1` (stereo not shown) is recorded as 88.6 % of DMSO.
`Nc1nc(Cl)nc2c1ncn2[C@@H]1O[C@H](CO)[C@@H](O)[C@@H]1F` — result for “nuclear SOX9 intensity”: 167 % of DMSO.

Sample 4
Target: Casein kinase I isoform gamma-1 (CSNK1G1, Homo sapiens, UniProt Q9HCP0)
Sequence of UniProt Q9HCP0 (whole entry, looked up): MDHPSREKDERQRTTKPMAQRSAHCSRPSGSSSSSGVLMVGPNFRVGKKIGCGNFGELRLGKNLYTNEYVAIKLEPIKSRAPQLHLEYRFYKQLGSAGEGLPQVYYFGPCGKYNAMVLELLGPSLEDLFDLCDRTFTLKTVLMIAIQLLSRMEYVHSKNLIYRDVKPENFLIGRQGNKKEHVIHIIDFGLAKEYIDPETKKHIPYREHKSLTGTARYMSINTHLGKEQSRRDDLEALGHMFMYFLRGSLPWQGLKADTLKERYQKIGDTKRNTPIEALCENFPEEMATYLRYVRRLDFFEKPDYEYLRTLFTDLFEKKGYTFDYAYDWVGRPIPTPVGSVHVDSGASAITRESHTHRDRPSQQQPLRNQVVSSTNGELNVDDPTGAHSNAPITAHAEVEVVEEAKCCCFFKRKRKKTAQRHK
Effect on: enzyme activity
Mode: inhibitor
Tested at: 0.5 µM
Reference: control
`COc1cc2ncc(-c3ccccc3)nc2cc1OC` has a remaining activity of 90.1%.
For `CC(C)[C@H](CO)Nc1nc(Nc2cccc(Cl)c2)c2ncn(C(C)C)c2n1`, the remaining activity was 28%.
`Cc1ccc(NC(=O)c2ccc(CN3CCN(C)CC3)cc2)cc1Nc1nccc(-c2cccnc2)n1` has a remaining activity of 101%.
For `CC(=O)O/N=C1/C(c2c(O)[nH]c3cc(Br)ccc23)=Nc2ccccc21`, the remaining activity was 93.9%.
With `CCOc1cc2ncnc(Nc3cccc(Br)c3)c2cc1OCC` the remaining activity was 107%.
With `C[S+]([O-])c1ccc(-c2nc(-c3ccncc3)c(-c3ccc(F)cc3)[nH]2)cc1` (stereo not shown) the remaining activity was 95.7%.
`O=c1cc(N2CCOCC2)oc2c1ccc1ccccc12` gave a remaining activity of 101%.
For `CN(C)CCCn1cc(C2=C(c3c[nH]c4ccccc34)C(=O)NC2=O)c2ccccc21`, the remaining activity was 99.1%.
`COc1cc2ncnc(Nc3ccc(OCc4ccccc4)cc3)c2cc1OC` gave a remaining activity of 90.6%.
`CC(C)c1nn(-c2c(Cl)cccc2Cl)c2nc(Cc3ccc(OCCO)cc3)[nH]c(=O)c12` has a remaining activity of 101%.
`COc1ccc(Cl)cc1NC(=O)Nc1cc(C)nc2ccccc12` gave a remaining activity of 97.9%.
`Cn1cc(/C=C2\C(=O)Nc3ccc(S(N)(=O)=O)cc32)c2ccccc21` gave a remaining activity of 88.3%.
For `Cc1nc(Nc2ncc(C(=O)Nc3c(C)cccc3Cl)s2)cc(N2CCN(CCO)CC2)n1`, the remaining activity was 96.6%.
For `Cn1cnc2cc3c(Nc4cccc(Br)c4)ncnc3cc21`, the remaining activity was 104%.
`COc1ccc(-c2cnc3c(-c4ccsc4)cnn3c2)cc1` has a remaining activity of 90.3%.
`O=C1NC(=O)/C(=C/c2ccc3nccnc3c2)S1` gave a remaining activity of 101%.
With `COc1cc2ncnc(N3CCN(C(=O)Nc4ccc(Oc5ccccc5)cc4)CC3)c2cc1OC` the remaining activity was 81.6%.
The remaining activity of `Nc1[nH]nc2nnc(-c3c(-c4ccccc4)nn4ccccc34)cc12` is reported as 109%.
`O=C(Nc1ccc(Cl)cc1)c1ccccc1NCc1ccncc1` gave a remaining activity of 110%.
For `CCN1/C(=C/C(C)=O)Sc2ccc(OC)cc21`, the remaining activity was 87.8%.
With `CCC(=O)Nc1ccc2ncnc(Nc3cccc(Br)c3)c2c1` the remaining activity was 98.6%.
With `CS(=O)(=O)CCNCc1ccc(-c2ccc3ncnc(Nc4ccc(OCc5cccc(F)c5)c(Cl)c4)c3c2)o1` the remaining activity was 105%.
